Experimental data from different studies.
Protocols differ between the studies behind these lines. Several values in a cell are separate wells, animals, samples, runs or records. Numbers after ± are the reported error.

| SMILES | cell line | test | conditions | how to read | quantity | result |
| --- | --- | --- | --- | --- | --- | --- |
| CC(C)(C)C(=O)OCOP(=O)(OCOC(=O)C(C)(C)C)C1CCCN(O)C1=O (centres unmarked) | NCI-H522 |  |  |  | log TGI | -5.74 log M |
| COc1ccccc1-c1ccncc1C(=O)Nc1nnc(OCc2ccc(Cl)cc2)s1 | DLD-1 parental |  | 0.5 µM | relative to: untreated | colony survival | 95.2% and 97.9% and 98.2% |
| CC(C)NCCCn1c(Sc2cc3c(cc2I)OCO3)nc2c(N)ncnc21 | MDA-MB-468 | annexin V staining and cleaved PARP |  |  | inflection point of cell death | 2 to 2.5 µM |
| CC(C)[C@H](NC(=O)[C@H](CCCNC(=N)N)NC(=O)[C@@H]1CCCN1C(=O)[C@@H](NC(=O)[C@H](C)NC(=O)[C@H](Cc1ccc(O)cc1)NC(=O)[C@H](CCC(N)=O)NC(=O)[C@H](CCCCN)NC(=O)[C@H](CCCNC(=N)N)NC(=O)[C@@H]1CCCN1C(=O)[C@H](CCC(=O)O)NC(=O)[C@@H](NC(=O)[C@H](C)N)[C@@H](C)O)[C@@H](C)O)C(=O)N[C@@H](Cc1ccccc1)C(=O)N[C@@H](Cc1c[nH]c2ccccc12)C(=O)N[C@H](C(=O)N[C@@H](CC(=O)O)C(=O)N[C@@H](C)C(=O)N1CCC[C@H]1C(=O)NCC(=O)NCCOCCOCCOCCOCCOCCOCCOCCOCCOCCOCCOCCOCCC(=O)N[C@@H](CS)C(N)=O)[C@@H](C)O | HCC2279 lung adenocarcinoma | cell binding, phage binding, refers to: output/input phage | 10 min, 37 °C | relative to: control phage | selectivity ratio | 2.8 ± 0.56 |
| O=C(C[Se]C(=O)c1ccccc1Nc1cccc(C(F)(F)F)c1)Nc1cccc(C(F)(F)F)c1 | NCI60 CNS subpanel | NCI60 five-dose screen |  |  | CC50 | 6.41 µM |
| Cc1[nH][n+]([Pt-2]([Cl])([n+]2[nH]c(C)c(CSC3CCCCC3)c2C)[n+]2[nH]c(C)c(CSC3CCCCC3)c2C)c(C)c1CSC1CCCCC1.[Cl-] | U-937 | cytotoxicity |  | relative to: IC50 HEK293 over IC50 U-937 | selectivity index | 2.5 |
| O=C(C[Se]C(=O)c1ccccc1)Nc1cccc(C(F)(F)F)c1 | NCI60 CNS subpanel | cell growth | 10 µM, 48 h, one-dose |  | mean growth percent | -83.5% |
| O=C(O)c1ccc(-c2nc(-c3ccccc3Cl)c3sccn23)cc1 | K562 | erythroid differentiation, flow cytometry | 0.1 mM, 24 h | relative to: untreated | CD235a fluorescence intensity | 0.99 fold change and 0.85 fold change and 1.53 fold change |
